Results pooled from the literature.
Each line is one published result; not all experiments were run side by side. Numbers after ± are the reported error.

| SMILES | assay | system | setting | how to read | endpoint | result |
| --- | --- | --- | --- | --- | --- | --- |
| Cc1ccc(/C=C/C(=O)N[C@@]23CCC(=O)[C@@H]4Oc5c(O)ccc6c5[C@@]42CCN(CC2CC2)[C@@H]3C6)cc1 | – | rat | intraplantar, 0.25 µg/50 µL | – | paw withdrawal latency | no effect |
| CN1CC[C@]23c4c5ccc(O)c4O[C@H]2[C@@H](O)C=C[C@H]3[C@H]1C5 | Hargreaves test | rat, carrageenan paw inflammation | 1 mg/kg, 10 min | – | paw withdrawal latency | 12.9 ± 1.38 s |
| CCCCCCC(C)(C)c1cc(O)c2c(c1)OC(C)(C)c1cnn(CC)c1-2 | – | rat, hypertonic saline masseter pain model | ip, 1 and 3 mg/kg, 30 min pretreatment, together with: hypertonic saline | relative to: vehicle | paw shaking nociceptive behaviour | decreased |
| CN1CC[C@]23c4c5ccc(O)c4O[C@H]2[C@@H](O)C=C[C@H]3[C@H]1C5 | thermal hyperalgesia | Sprague-Dawley rat, male, incisional pain | subcutaneous, 5 mg/kg, 2 h | – | paw-withdrawal latency | 13.1 ± 2.5 s |
| COC(=O)[C@H]1[C@@H](OC(=O)c2ccccc2)C[C@@H]2CC[C@H]1N2C | drug discrimination | Swiss Webster mice | ip, 0.3 to 20 mg/kg, trained 10 mg/kg vs saline | – | drug-lever responding maximum | > 80% |
| CN1C(=O)CC(=O)N(c2ccccc2)c2cc(Cl)ccc21 | hyperthermia-induced seizures | Scn1a+/- mouse | intraperitoneal, 5 mg/kg | – | seizure-free animals | 92% |
| CNC(C)Cc1ccc2c(c1)OCO2 (racemic) | visual analog scale, refers to: Stimulated | human | oral, 1.5 mg/kg, mean over session, unit not given | relative to: pre-dose baseline | mood rating | 36.3 |
| CN[C@@](C)(C[18F])C(=O)O | – | SCID mouse MDA-MB-468 xenograft, blood | 30 min, post injection | – | tissue uptake | 1.5 ± 0.1 %ID/g |
| CC[C@@H]1CN2CC[C@]3(Nc4cccc(OC)c4C3=O)[C@@H]2C[C@@H]1/C(=C\OC)C(=O)OC | tail withdrawal | MOR knockout mouse C57BL/6J | subcutaneous, 3 mg/kg | relative to: wild type | antinociception | decreased |
| CCCCn1cc(C(=O)c2cccc3ccccc23)c2ccccc21 | handling reactivity, functional observational battery | ICR mice, male | iv | relative to: vehicle | lowest dose with significant effect | 1 to 3 mg/kg |
| CCCCCc1cc(O)c2c(c1)OC(C)(C)[C@@H]1CCC(C)=C[C@@H]21 | drug discrimination | C57BL/6J mice, male | intraperitoneal, first dose-effect curve | – | ED50 | 1.9 mg/kg |
| COC(=O)[C@H]1[C@@H](OC(=O)c2ccccc2)C[C@@H]2CC[C@H]1N2C | in vivo microdialysis | rat, nucleus accumbens shell | intraperitoneal, 3.0 mg/kg, 0 to 30 min after dosing, mean over place-conditioning session | relative to: baseline | extracellular dopamine level | 165% |
| CCCCCn1cc(C(=O)NC(C(N)=O)C(C)(C)C)c2ccccc21 (centres unmarked) | – | male ND4 Swiss-Webster mice | intraperitoneal, 0.5 to 2.5 mg/kg | – | onset of locomotor depression | ≤ 10 min |
| COc1ccc2cc3[n+](cc2c1OC)CCc1cc2c(cc1-3)OCO2 | – | rat, STZ-induced diabetic, liver | oral, 12 mg/kg, day 28 | – | SOD activity | 7.41 ± 0.59 U/mg protein |
| CCC[C@@H](C(=O)c1ccccc1)N1CCCC1 | locomotor activity and stereotypy | male Sprague-Dawley rat | intravenous | relative to: compound over R-α-PVP | potency ratio | ≥ 30 fold |
| NC1(c2ccccc2Cl)CCC=CC1=O (centres unmarked) | metabolite formation, metabolite | pooled human liver microsomes | 30 min, 37 °C, together with: (R)-norketamine substrate | – | Vmax | 469 pmol/min/mg protein |
| NC(=O)C[S+]([O-])C(c1ccccc1)c1ccccc1 (racemic) | – | mouse, C57BL/6, female, EAE | dose not given, day 24, together with: noxious paw pressure | relative to: vehicle | ultrasonic vocalisation duration | inhibited |
| CCC1(c2ccccc2)C(=O)NC(=O)NC1=O | hyperthermia-induced seizures | Scn1a+/- mouse | intraperitoneal, 15 mg/kg | – | seizure-free animals | 100% |
| CCCCCc1cc(O)c2c(c1)OC(C)(C)[C@@H]1CCC(C)=C[C@@H]21 | – | male ND4 Swiss-Webster mice | intraperitoneal, 10 and 25 mg/kg | – | onset of locomotor depression | 10 to 20 min |
| CCCCCc1cc(O)c2c(c1)OC(C)(C)[C@@H]1CCC(C)=C[C@@H]21 | handling reactivity, functional observational battery | ICR mice, male | iv | relative to: vehicle | lowest dose with significant effect | 1 mg/kg |
| CCCCCn1cc(C(=O)c2ccc(OC)cc2)c2ccccc21 | – | male ND4 Swiss-Webster mice | intraperitoneal, 5 and 10 mg/kg | – | onset of locomotor depression | ≤ 20 min |
| CCCCCn1cc(C(=O)c2ccc(OC)c3ccccc23)c2ccccc21 | handling reactivity, functional observational battery | ICR mice, male | iv | relative to: vehicle | lowest dose with significant effect | 1 mg/kg |
| CCC1(c2ccccc2)C(=O)NC(=O)NC1=O | hind limb tonic extension | albino mouse, MES-induced seizure | ip, 0.5 h | – | minimal effective dose | 30 mg/kg |

A few entries again:
| SMILES | assay | system | setting | how to read | endpoint | result |
| --- | --- | --- | --- | --- | --- | --- |
| CCCCCn1cc(C(=O)NC(C(N)=O)C(C)(C)C)c2ccccc21 (centres unmarked) | – | male ND4 Swiss-Webster mice | intraperitoneal, 0.5 to 2.5 mg/kg | – | onset of locomotor depression | ≤ 10 min |
